Results of several laboratories.
Numbered parts are unrelated; each lists some results of a single study. “And” joins repeats or separate records; there may be more than shown.
Sequence of UniProt Q9UKT9 (whole entry, looked up): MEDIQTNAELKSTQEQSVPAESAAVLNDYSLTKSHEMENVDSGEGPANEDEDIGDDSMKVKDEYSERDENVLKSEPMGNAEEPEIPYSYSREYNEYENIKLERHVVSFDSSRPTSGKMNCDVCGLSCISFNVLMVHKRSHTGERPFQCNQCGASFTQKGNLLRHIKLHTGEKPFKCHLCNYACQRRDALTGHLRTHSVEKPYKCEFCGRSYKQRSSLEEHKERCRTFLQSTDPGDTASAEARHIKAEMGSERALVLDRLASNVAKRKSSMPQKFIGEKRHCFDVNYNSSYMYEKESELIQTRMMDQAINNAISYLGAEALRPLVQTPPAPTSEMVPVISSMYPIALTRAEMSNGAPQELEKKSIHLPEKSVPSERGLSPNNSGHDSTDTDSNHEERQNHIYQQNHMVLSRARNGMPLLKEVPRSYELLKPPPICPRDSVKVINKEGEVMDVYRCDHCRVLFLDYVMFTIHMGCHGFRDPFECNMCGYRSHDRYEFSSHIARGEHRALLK
Sequence of UniProt P15170 (whole entry, looked up): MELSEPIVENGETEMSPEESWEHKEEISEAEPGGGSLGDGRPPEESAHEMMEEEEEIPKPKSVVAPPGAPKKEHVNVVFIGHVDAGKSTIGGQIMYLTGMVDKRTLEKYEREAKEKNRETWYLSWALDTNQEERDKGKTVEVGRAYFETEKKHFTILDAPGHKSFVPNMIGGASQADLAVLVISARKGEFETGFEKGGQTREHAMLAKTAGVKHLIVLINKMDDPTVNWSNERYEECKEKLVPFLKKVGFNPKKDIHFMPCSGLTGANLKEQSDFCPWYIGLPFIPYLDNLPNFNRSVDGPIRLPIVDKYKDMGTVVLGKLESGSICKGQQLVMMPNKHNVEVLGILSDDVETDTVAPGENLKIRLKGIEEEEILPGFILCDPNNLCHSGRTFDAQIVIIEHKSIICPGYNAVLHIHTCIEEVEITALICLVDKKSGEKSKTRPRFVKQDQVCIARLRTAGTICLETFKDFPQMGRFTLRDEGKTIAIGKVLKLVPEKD
Sequence of UniProt Q9HC98 (whole entry, looked up): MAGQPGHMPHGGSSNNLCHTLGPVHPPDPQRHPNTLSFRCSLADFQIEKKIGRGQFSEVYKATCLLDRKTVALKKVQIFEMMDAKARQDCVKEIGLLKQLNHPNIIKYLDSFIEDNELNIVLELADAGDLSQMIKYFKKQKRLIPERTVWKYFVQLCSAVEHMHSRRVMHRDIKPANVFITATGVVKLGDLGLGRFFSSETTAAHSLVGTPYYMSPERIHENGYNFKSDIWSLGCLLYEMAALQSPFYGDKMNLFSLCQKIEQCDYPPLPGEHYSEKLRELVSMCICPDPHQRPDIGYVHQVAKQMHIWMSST

Set 1 — effect on: enzyme activity; action: inhibitor; concentration: 0.5 µM; baseline: control
Target: Serine/threonine-protein kinase MRCK alpha (CDC42BPA, Homo sapiens, UniProt Q5VT25)
Sequence of UniProt Q5VT25 (whole entry, looked up): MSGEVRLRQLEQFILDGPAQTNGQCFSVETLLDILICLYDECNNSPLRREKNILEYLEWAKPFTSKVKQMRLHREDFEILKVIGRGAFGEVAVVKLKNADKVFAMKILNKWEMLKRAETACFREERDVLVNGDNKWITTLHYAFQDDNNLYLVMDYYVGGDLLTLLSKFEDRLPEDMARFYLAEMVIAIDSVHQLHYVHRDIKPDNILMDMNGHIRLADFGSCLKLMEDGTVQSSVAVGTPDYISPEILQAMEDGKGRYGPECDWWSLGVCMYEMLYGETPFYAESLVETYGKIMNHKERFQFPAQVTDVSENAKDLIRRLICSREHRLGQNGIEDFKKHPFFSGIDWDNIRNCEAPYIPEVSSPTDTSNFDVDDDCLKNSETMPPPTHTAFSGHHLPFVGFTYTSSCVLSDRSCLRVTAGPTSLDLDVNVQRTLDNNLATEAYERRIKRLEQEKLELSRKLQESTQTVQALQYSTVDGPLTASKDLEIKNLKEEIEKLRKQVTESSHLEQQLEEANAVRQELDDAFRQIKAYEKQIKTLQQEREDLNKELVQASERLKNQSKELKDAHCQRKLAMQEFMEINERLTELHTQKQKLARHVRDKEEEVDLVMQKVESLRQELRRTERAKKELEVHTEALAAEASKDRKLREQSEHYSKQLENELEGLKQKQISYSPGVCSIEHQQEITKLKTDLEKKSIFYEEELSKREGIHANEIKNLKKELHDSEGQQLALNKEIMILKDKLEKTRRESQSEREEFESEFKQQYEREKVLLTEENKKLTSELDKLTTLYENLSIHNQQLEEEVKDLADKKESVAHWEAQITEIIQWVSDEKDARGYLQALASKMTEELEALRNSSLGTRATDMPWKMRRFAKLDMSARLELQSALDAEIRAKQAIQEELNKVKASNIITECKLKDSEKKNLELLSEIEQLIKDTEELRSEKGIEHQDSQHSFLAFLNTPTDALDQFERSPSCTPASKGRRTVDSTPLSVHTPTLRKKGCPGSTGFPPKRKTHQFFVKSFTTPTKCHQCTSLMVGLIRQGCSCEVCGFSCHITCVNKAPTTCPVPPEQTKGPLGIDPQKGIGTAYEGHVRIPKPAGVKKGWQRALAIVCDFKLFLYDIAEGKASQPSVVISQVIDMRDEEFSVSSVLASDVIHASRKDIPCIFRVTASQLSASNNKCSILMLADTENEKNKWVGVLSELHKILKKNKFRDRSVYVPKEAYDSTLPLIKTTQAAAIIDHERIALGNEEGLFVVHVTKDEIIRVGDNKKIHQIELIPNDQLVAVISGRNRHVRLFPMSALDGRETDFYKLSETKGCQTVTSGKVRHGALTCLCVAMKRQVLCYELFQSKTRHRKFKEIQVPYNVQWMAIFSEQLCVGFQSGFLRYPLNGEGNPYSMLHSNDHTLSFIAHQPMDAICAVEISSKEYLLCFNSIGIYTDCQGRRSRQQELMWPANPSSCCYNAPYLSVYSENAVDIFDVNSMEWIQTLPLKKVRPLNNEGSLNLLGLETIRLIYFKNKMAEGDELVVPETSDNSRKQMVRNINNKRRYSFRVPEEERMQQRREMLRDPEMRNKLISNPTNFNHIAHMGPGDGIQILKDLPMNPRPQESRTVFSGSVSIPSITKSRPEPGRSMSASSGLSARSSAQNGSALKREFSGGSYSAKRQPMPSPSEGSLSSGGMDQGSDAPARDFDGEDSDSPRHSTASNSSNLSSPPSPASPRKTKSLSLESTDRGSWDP
SMILES	remaining activity
Cc1ccc(NC(=O)c2ccc(CN3CCN(C)CC3)cc2)cc1Nc1nc(-c2cccnc2)cs1	104%
Oc1ccc(-c2nc(-c3ccncc3)c(-c3ccc(F)cc3)[nH]2)cc1	94%
O=C1NC(=O)C(c2cn(CCCO)c3ncccc23)=C1c1cnccn1	78.6%
COc1ccc(CNC(=O)Nc2ncc([N+](=O)[O-])s2)cc1	93.7%
Nc1ncnc2n[nH]c(Nc3ccc(F)cc3)c12	103%
CNC(=O)c1cc(Oc2ccc(NC(=O)Nc3ccc(Cl)c(C(F)(F)F)c3)cc2)ccn1	85.2%
Cn1c2ccccc2c2c3c(c4c5ccccc5n(CCC#N)c4c21)CNC3=O	89.9%
CCOC(=O)c1c(C)[nH]c(/C=C2\C(=O)Nc3ccccc32)c1C	85.7%
CO[C@H]1C[C@@H]2CC[C@@H](C)[C@@](O)(O2)C(=O)C(=O)N2CCCC[C@H]2C(=O)O[C@H]([C@H](C)C[C@@H]2CC[C@@H](O)[C@H](OC)C2)CC(=O)[C@H](C)/C=C(\C)[C@@H](O)[C@@H](OC)C(=O)[C@H](C)C[C@H](C)/C=C/C=C/C=C/1C	95.6%
O=c1c2ccccc2[nH]c(=S)n1CCN1CCC(=C(c2ccc(F)cc2)c2ccc(F)cc2)CC1	97.7%
OCC(O)CCON=C1C(c2c(O)[nH]c3ccccc23)=Nc2ccccc21 (centres unmarked)	88.6%
COc1ccc(C(=O)Nc2sc3c(c2C(N)=O)CCCC3)cc1OC	81.8%
NCCNc1ncc(C(N)=O)c(Nc2cccc(C(F)(F)F)c2)n1	98.9%
O=S(=O)(c1cccc2cnccc12)N1CCCNCC1	104%
Cc1cccc(-c2[nH]c(C(C)(C)C)nc2-c2ccc3c(c2)OCO3)n1	89.6%
COc1ccc(OC)c2c(=S)c3ccccc3[nH]c12	82.7%

Set 2 — concentration: 1 µM
SMILES: C[C@H]1CC[C@H](n2c3cnccc3c3cnc(Nc4ccc5c(n4)CCN(C(=O)CO)C5)nc32)CC1
target	effect on	technique	remaining binding [%]
VRK2 (Homo sapiens, UniProt Q86Y07)	binding	competition with immobilised ligand	94
Ribosomal protein S6 kinase alpha-1, N-terminal kinase domain (RPS6KA1, Homo sapiens, UniProt Q15418)	binding	competition with immobilised ligand	12
ABL2 (Homo sapiens, UniProt P42684)	binding	competition with immobilised ligand	87
TNIK (Homo sapiens, UniProt Q9UKE5)	binding	competition with immobilised ligand	37
MAP2K2 (Homo sapiens, UniProt P36507)	cell-free assay	competition with immobilised ligand	61
Ribosomal protein S6 kinase alpha-3, N-terminal kinase domain (RPS6KA3, Homo sapiens, UniProt P51812)	binding	competition with immobilised ligand	8.8
LTK (Homo sapiens, UniProt P29376)	binding	–	100
ABL1 (Homo sapiens, UniProt P00519, T315I)	–	–	81
SBK1 (Homo sapiens, UniProt Q52WX2)	binding	competition with immobilised ligand	91
SIK1 (Homo sapiens, UniProt P57059)	binding	competition with immobilised ligand	56

Set 3 — technique: competition with immobilised ligand; concentration: 1 µM
Structure (SMILES): CS(=O)(=O)NCC[C@H](NC(=O)c1cncc2c1cnn2-c1ccc(F)cc1)c1ccnc(S(C)(=O)=O)c1
target	effect on	remaining binding
CDK14 (Homo sapiens, UniProt O94921)	cell-free assay	100%
LYN (Homo sapiens, UniProt P07948)	cell-free assay	100%
TNNI3K (Homo sapiens, UniProt Q59H18)	cell-free assay	100%
EIF2AK2 (Homo sapiens, UniProt P19525)	cell-free assay	53%
ALK (Homo sapiens, UniProt Q9UM73, C1156Y)	cell-free assay	100%
IRAK3 (Homo sapiens, UniProt Q9Y616)	cell-free assay	89%
ERBB4 (Homo sapiens, UniProt Q15303)	cell-free assay	95%
ACVR2B (Homo sapiens, UniProt Q13705)	binding	90%
KIT (Homo sapiens, UniProt P10721, D816H)	cell-free assay	100%
DSTYK (Homo sapiens, UniProt Q6XUX3)	cell-free assay	98%
ACVR2A (Homo sapiens, UniProt P27037)	cell-free assay	81%
RIOK3 (Homo sapiens, UniProt O14730)	cell-free assay	100%
NEK6 (Homo sapiens, UniProt Q9HC98)	cell-free assay	100%
BLK (Homo sapiens, UniProt P51451)	cell-free assay	100%
EPHA1 (Homo sapiens, UniProt P21709)	cell-free assay	100%
CAMK4 (Homo sapiens, UniProt Q16566)	cell-free assay	100%
GAK (Homo sapiens, UniProt O14976)	cell-free assay	100%
WEE2 (Homo sapiens, UniProt P0C1S8)	cell-free assay	100%
PRKG2 (Homo sapiens, UniProt Q13237)	cell-free assay	87%
FLT3 (Homo sapiens, UniProt P36888, D835V)	cell-free assay	100%
MKNK1 (Homo sapiens, UniProt Q9BUB5)	cell-free assay	95%
PKN2 (Homo sapiens, UniProt Q16513)	cell-free assay	100%
Myosin-IIIb (MYO3B, Homo sapiens, UniProt Q8WXR4)	binding	100%
ROCK2 (Homo sapiens, UniProt O75116)	cell-free assay	100%
EGFR (Homo sapiens, UniProt P00533, A750P/del747-749)	cell-free assay	71%

Set 4 — action: degrader
Structure (SMILES): O=C1CCC(N2Cc3cc(C4CCN(Cc5ccccc5)CC4)ccc3C2=O)C(=O)N1 (centres unmarked)
IKZF4: Zinc finger protein Eos (IKZF4, Homo sapiens, UniProt Q9H2S9)
Sequence of UniProt Q9H2S9 (whole entry, looked up): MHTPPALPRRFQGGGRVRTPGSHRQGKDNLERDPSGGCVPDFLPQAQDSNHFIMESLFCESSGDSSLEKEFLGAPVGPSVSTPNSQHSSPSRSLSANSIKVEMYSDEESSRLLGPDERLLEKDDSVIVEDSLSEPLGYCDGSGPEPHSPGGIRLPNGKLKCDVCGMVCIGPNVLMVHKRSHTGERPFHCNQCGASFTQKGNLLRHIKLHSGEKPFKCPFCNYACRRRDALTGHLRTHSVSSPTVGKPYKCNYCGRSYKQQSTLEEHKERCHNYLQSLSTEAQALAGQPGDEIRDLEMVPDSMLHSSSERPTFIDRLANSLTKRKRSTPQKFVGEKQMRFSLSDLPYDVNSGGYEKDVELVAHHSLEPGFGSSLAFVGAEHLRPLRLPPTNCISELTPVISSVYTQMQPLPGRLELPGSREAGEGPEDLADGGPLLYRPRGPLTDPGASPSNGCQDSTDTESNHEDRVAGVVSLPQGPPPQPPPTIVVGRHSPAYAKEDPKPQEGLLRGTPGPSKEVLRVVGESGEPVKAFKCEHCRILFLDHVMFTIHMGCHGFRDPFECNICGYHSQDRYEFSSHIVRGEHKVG
CSNK1A1: Casein kinase I isoform alpha (CSNK1A1, Homo sapiens, UniProt P48729)
Sequence of UniProt P48729 (whole entry, looked up): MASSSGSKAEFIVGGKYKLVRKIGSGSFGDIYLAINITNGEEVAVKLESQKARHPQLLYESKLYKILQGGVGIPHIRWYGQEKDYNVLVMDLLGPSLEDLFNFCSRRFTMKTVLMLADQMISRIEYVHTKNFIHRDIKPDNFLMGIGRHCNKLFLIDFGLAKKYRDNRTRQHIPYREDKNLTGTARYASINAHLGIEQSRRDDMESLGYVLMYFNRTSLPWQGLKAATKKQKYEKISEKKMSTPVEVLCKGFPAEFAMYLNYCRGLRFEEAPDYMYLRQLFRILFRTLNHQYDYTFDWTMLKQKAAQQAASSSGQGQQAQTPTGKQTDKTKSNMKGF
CRBN/Zinc finger protein Helios: CRBN/Zinc finger protein Helios (Homo sapiens, UniProt Q96SW2+Q9UKS7)
Sequence of UniProt Q9UKS7 (whole entry, looked up): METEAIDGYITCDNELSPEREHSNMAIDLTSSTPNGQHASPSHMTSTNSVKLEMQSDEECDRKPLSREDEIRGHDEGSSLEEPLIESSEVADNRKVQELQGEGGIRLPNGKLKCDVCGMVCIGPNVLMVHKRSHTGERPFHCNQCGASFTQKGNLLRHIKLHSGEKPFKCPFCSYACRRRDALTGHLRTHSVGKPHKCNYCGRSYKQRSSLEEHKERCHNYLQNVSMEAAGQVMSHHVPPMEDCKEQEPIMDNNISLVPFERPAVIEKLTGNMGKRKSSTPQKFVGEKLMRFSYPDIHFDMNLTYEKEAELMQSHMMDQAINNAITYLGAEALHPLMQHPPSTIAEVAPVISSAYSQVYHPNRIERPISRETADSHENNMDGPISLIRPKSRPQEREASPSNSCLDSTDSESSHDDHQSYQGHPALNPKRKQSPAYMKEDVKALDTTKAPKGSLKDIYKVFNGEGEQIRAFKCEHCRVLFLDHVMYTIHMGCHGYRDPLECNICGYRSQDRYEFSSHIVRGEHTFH
Sequence of UniProt Q96SW2 (whole entry, looked up): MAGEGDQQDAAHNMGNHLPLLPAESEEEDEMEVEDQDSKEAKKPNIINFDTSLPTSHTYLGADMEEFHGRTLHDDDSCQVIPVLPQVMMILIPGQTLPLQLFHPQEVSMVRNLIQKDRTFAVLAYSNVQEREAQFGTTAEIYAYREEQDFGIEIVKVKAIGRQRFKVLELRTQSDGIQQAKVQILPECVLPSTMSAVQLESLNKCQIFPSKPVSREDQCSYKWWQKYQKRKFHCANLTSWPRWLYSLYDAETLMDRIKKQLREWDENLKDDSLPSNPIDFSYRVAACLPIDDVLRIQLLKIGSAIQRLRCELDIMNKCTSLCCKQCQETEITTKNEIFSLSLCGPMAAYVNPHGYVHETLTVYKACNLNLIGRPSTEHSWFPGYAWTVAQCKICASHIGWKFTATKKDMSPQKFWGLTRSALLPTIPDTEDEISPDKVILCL
target	technique	cells	concentration	time	remaining protein
DNA-binding protein Ikaros (Homo sapiens, UniProt Q13422)	HiBiT	HEK293	0.001524 µM	6 h	90.1%
IKZF4	HiBiT	HEK293	5.08e-05 µM	6 h	112%
GSPT1 (Homo sapiens, UniProt P15170)	HiBiT	HEK293	0.0001694 µM	–	110% and 111%
CSNK1A1	HiBiT	HEK293	1.111 µM	6 h	94.1%
Zinc finger protein Aiolos (Homo sapiens, UniProt Q9UKT9)	HiBiT	HEK293	3.333 µM	–	83.1% and 82.8%
IKZF4	HiBiT	HEK293	0.03704 µM	6 h	118%
CRBN/Zinc finger protein Helios	flow cytometry	primary human regulatory T cells	1 µM	3 h	87.5%
IKZF4	HiBiT	HEK293	0.0004572 µM	6 h	118%
CSNK1A1	HiBiT	HEK293 HiBiT-CK1α	3333.33 nM	–	103% and 84.5%
CRBN/Zinc finger protein Helios	flow cytometry	primary human regulatory T cells	5.08e-05 µM	6 h	107%
CSNK1A1	HiBiT	HEK293 HiBiT-CK1α	41.15 nM	–	85.7% and 91.6%

A few entries again (set 4):
target	technique	cells	concentration	time	remaining protein
Zinc finger protein Aiolos (Homo sapiens, UniProt Q9UKT9)	HiBiT	HEK293	3.333 µM	–	83.1% and 82.8%
IKZF4	HiBiT	HEK293	0.03704 µM	6 h	118%
CRBN/Zinc finger protein Helios	flow cytometry	primary human regulatory T cells	1 µM	3 h	87.5%
IKZF4	HiBiT	HEK293	0.0004572 µM	6 h	118%
CSNK1A1	HiBiT	HEK293 HiBiT-CK1α	3333.33 nM	–	103% and 84.5%
CRBN/Zinc finger protein Helios	flow cytometry	primary human regulatory T cells	5.08e-05 µM	6 h	107%
CSNK1A1	HiBiT	HEK293 HiBiT-CK1α	41.15 nM	–	85.7% and 91.6%
